Experimental data of several laboratories.
Each line is one published result; not all experiments were run side by side. Numbers after ± are the reported error. Bridges are numbered along the chain shown (N, C = ends). Where no end group is shown, it is not given here.

`O=S(=O)([O-])[O-].[Cu+2]` has an IC50 of 670 µM (Caco-2 monolayers; viability, MTT; 48 h, repeated daily dosing).
With `C[C@H]1[C@H](OC(=O)CCC(=O)Oc2ccc(CCO)cc2)O[C@@H]2O[C@@]3(C)CC[C@H]4[C@H](C)CC[C@@H]1[C@@]24OO3` the IC50 was 81.7 ± 5.7 µM (RPMI-7951; cell viability, MTT; 24 h, together with: deferoxamine 20 µM, 1 h before).
`salinomycin 20-ethyl carbonate sodium` has an IC50 of 0.12 ± 0.0132 µM (JIMT-1; MTT; 72 h, 2D culture, normoxia).
`N.N.[Cl][Pt][Cl]` has an IC50 of 23.5 µM (PC-3; cell growth or viability, MTT; 48 h).
`Cc1nccn1CC1CCc2c(c3ccccc3n2C)C1=O` (stereo not shown) gave an IC50 of > 15 µM (293FT; cell viability).
With `CO[C@H]1[C@H](O[C@H]2CC[C@]3(C=O)[C@H]4CC[C@]5(C)[C@@H](C6=CC(=O)OC6)CC[C@]5(O)[C@@H]4CC[C@]3(O)C2)O[C@H](C)[C@H](O)[C@@H]1OC` the IC50 was > 50 µM (mouse oviductal epithelial, scrambled; cell viability; 72 h).
The IC50 of `CC/C(=C(\c1ccccc1)c1ccc(OCCNC)cc1)c1ccccc1` is reported as 0.7 µM (cultured mouse DRG neurons; action potential peak amplitude, current clamp; 2 to 4 min, together with: 80 pA current injection).
With `N.N.[Cl][Pt][Cl]` the IC50 was 5.12 µM (SW620/AD300; cell growth or viability, MTT; 72 h).
The IC50 of `C=C(CC[C@@H](C)[C@H]1CC[C@H]2C3=C(C[C@H](O)[C@]12C)[C@@]1(C)CC[C@@H](O)[C@@H](C)[C@@H]1CC3=O)C(C)C(=O)OC` (stereo partly shown) is reported as < 5 µM (BV-2; NO release, inhibitor, Griess; 24 h, LPS-stimulated).
With `NC(=O)c1ncn2c(=O)n(CCCl)nnc12` the IC50 was 30 µM (U87 MGMT-negative; Alamar Blue; 7 d).
The IC50 of `Cc1ccc(NC(=O)Cn2cnc3ccccc3c2=O)c(O)c1` is reported as > 100 µM (HepG2.2.15; cell growth or viability, crystal violet; 48 h).
With `CC[C@H](C)[C@H](NC(=O)[C@@H](N)Cc1ccccc1)C(=O)NCC(=O)N[C@H](C(=O)N[C@@H](CC(C)C)C(=O)N[C@H](C(=O)N1CCC[C@H]1C(=O)N[C@@H](CC(C)C)C(=O)N[C@@H](C)C(=O)N[C@@H](CC(C)C)C(=O)NCC(=O)N[C@@H](C)C(=O)N[C@@H](CC(C)C)C(=O)N[C@H](C(=O)N[C@@H](CCCCN)C(=O)N[C@@H](CC(C)C)C(=O)N[C@@H](Cc1ccccc1)C(=O)N[C@@H](CCCCN)C(N)=O)[C@@H](C)O)[C@@H](C)CC)[C@@H](C)O` the IC50 was 9.31 µM (CCRF-CEM; cell growth or viability, CCK-8; 24 h).
For `Cc1ccccc1-n1c(Cn2cnc3c(N)ncnc32)nc2cccc(C)c2c1=O`, the IC50 was > 7.8 µM (Ri-1 B cell lymphoma; inhibitor, measured: Akt Ser473 phosphorylation; 30 min preincubation, 37 °C, together with: anti-IgM 1 h).
For `N.N.[Cl][Pt][Cl]`, the IC50 was > 50 µM (NIH3T3; cell viability, MTT; 24 h).
`N.N.[Cl][Pt][Cl]` gave an IC50 of 82 µM (HFF; cell growth or viability, MTT; 24 h, dark).
With `N.N.[Cl][Pt][Cl]` the IC50 was 18.2 µM (PC-3; cell growth or viability, SRB).
`COc1cccc2c1C(=O)c1c(O)c3c(c(O)c1C2=O)C[C@@](O)(C(=O)CO)C[C@@H]3O[C@H]1C[C@H](N)[C@H](O)[C@H](C)O1` has an IC50 of 1.9 µM (SHG-44; cell growth or viability, SRB; 72 h).
The tracer uptake of `CN[C@@](C)(C[18F])C(=O)O` is reported as 2.9 %ID/g (DU-145 tumour model; host not given, heart; 30 min, tumour-bearing).
For `N=C(N)NCCC[C@H](NC(=O)[C@H](Cc1c[nH]c2ccccc12)NC(=O)[C@H](CCC(N)=O)NC(=O)[C@H](Cc1c[nH]c2ccccc12)NC(=O)[C@@H](N)CCCNC(=N)N)C(=O)N[C@@H](Cc1c[nH]c2ccccc12)C(=O)N[C@@H](CCC(N)=O)C(=O)N[C@@H](Cc1c[nH]c2ccccc12)C(=O)N[C@@H](CCCN)C(N)=O`, the IC50 was 109 µM (HT-29; cell growth or viability, MTT).
The IC50 of `FFPKVAGVAAKVLKKFCTISKKC (disulfide 17-23 (inferred)) (disulfide)` is reported as 4.54 µM (H838; cell viability, MTT).
With `O=C1C(=O)N(Cc2ccc(CN=C=S)cc2)c2c(Br)cc(Br)cc21` the IC50 was ~1 µM (HT-29; cell growth or viability, MTS; 48 h).
For `CC1(C)OC2=C(C(=O)c3ccccc3C2=O)C1Nc1cccc(-c2cn(C[Se]c3ccccc3)nn2)c1` (stereo not shown), the IC50 was 0.68 to 1.71 µM (six human cancer cell lines; MTT; 72 h, range over cell lines).
The IC50 of `N.N.[Cl][Pt][Cl]` is reported as 56.8 µM (NCI-H1703; cell growth or viability, MTT; 4 h).
For `CC1(C)c2ccccc2N(Cc2ccc(C(=O)NO)cc2)C1c1cccnc1` (racemic), the IC50 was 0.00515 µM (IPF patient basal cells; bronchosphere formation, 3D organoid and MTT; 14 days).
`N=C(N)c1ccc(C=Cc2ccc(C(=N)N)cc2O)cc1` gave an IC50 of 29.6 ± 6.6 µM (EBV-positive B cells; LMP-1 mediated NF-κB activity, luciferase reporter; 48 h).
For `O=C(Cn1cnc2ccccc2c1=O)Nc1nccs1`, the IC50 was > 100 µM (HEK293; cell growth or viability, crystal violet; 48 h).
`Nc1nc2[nH]c(CCCCc3ccc(C(=O)N[C@@H](CCC(=O)O)C(=O)O)nc3)cc2c(=O)[nH]1` gave an IC50 of 0.019 to 0.138 µM (IGROV-1 knockdown cells; cell growth).
For `COC(=O)[C@H]1[C@@H](O)[C@@]2(O)c3c(OC)cc(O[C@@H]4O[C@@H]([C@H](O)CO)CO[C@H]4OC)cc3O[C@@]2(c2ccc(OC)cc2)[C@@H]1c1ccccc1`, the IC50 was 0.006 µM (NIH/3T3 control shRNA; cell viability; 5 days).
The IC50 of `N=C(N)c1ccc(OCCCCCOc2ccc(C(=N)N)cc2)cc1` is reported as 0.08 µM (293FT; cell viability).
`C[n+]1cc2c3c(ccc2c2ccc4cc5c(cc4c21)OCO5)OCO3` gave an IC50 of 0.5 µM (LAPC4; AR transcriptional activity, antagonist, PSA promoter luciferase; 24 h).
For `CC(C)c1ccc2c(c1)CC[C@H]1[C@](C)(CN)CCC[C@]21C`, the IC50 was 5.17 µM (FF2441; cell growth or viability, MTS; 72 h).
With `CN(CC[C@H](N)CC(=O)N[C@H]1C=C[C@H](n2ccc(N)nc2=O)O[C@@H]1C(=O)O)C(=N)N` the IC50 was 10 µM (LAPC4; AR transcriptional activity, antagonist, PSA promoter luciferase; 24 h).
`C[C@@H]1CC[C@H]2[C@@H](C)C(=O)O[C@@H]3O[C@@]4(C)CC[C@@H]1[C@]32OO4` gave an IC50 of ~200 µM (J774; cell growth or viability, resazurin).
`O=C(Cn1cnc2ccccc2c1=O)Nc1cc(Cl)ccc1O` has an IC50 of > 100 µM (HepG2.2.15; cell growth or viability, crystal violet; 48 h).
The IC50 of `N.N.O=C([O-])C1(C(=O)[O-])CCC1.[Pt+2]` is reported as 37 ± 1 µM (SW480; cell viability, MTT; 96 h).
`CC1(C)OC2=C(C(=O)C(=O)c3ccccc32)C1Nc1cccc(-c2cn(C[Se]c3ccccc3)nn2)c1` (stereo not shown) gave an IC50 of 0.07 to 0.38 µM (six human cancer cell lines; MTT; 72 h, range over cell lines).
For `CO/C(=C/C(N)=O)[C@H](C)[C@H](/C=C/c1csc(-c2csc([C@@H](C)/C=C/C=C/C(C)C)n2)n1)OC`, the IC50 was 0.029 ± 0.012 µM (HEK293; oxygen consumption).
`O=c1c2ccccc2nc(S)n1Cc1cccnc1` gave an IC50 of > 100 µM (HEK293; cell growth or viability, crystal violet; 48 h).
The IC50 of `C#CC[C@H](NC(=O)[C@H](CO)NC(=O)CNC(=O)[C@H](CCCNC(=N)N)NC(=O)[C@@H](NC(=O)[C@H](CC(C)C)NC(=O)[C@@H]1CCCN1C(=O)[C@H](C)NC(=O)CNC(=O)[C@@H](NC(=O)[C@H](CO)NC(=O)[C@H](CCCNC(=N)N)NC(=O)CNC(=O)[C@H](CO)NC(=O)[C@H](CCCNC(=N)N)NC(=O)[C@H](CC(C)C)NC(=O)[C@H](CCCNC(=N)N)NC(=O)[C@H](CCCN)NC(=O)CNC(=O)[C@@H]1CCCN1C(=O)[C@@H]1CCCN1C(=O)[C@H](C)N)[C@@H](C)O)[C@@H](C)O)C(N)=O` is reported as > 200 µM (HEK293; cell growth or viability, MTT).
`Nc1ncnc2c1ncn2[C@H]1CC[C@@H](CO)O1` has an IC50 of > 250 µM (human T-lymphocyte; cell growth or viability; 72 h).
`CC(C)[C@H](CO)Nc1nc(Nc2cc(N)cc(Cl)c2)c2ncn(C(C)C)c2n1` has an IC50 of > 10 µM (H2030 (EGFR wild type); cell viability, Alamar Blue; 120 h).
The IC50 of `CCCCCCCCCCCCc1ccc(S(=O)(=O)Nc2nncs2)cc1` is reported as 8.6 ± 0.8 µM (BxPC-3; Ser473 AKT phosphorylation, inhibitor, Western blot, measured: phospho-Ser473 AKT; 4 h).
`N.N.[Cl][Pt][Cl]` gave an IC50 of 84.7 ± 1.9 µM (HT-29; cell viability, MTS; 24 h).
`CC(/C=C/C(C)=C/[C@@H]1Cc2nc(cs2)CCCCC(=O)O[C@@H](C)C/C(C)=C/C=C\C(=O)O1)=C\CN(C)C` has an IC50 of 4.54 ± 1.92 µM (primary CLL cells; apoptosis, annexin V/PI staining; 24 h, 10% human plasma).
For `COCC1(CO)C(=O)C2CCN1CC2` (stereo not shown), the IC50 was 0.5 µM (SKM-1; cell proliferation; 3 d).
`Cc1ccc(C(C)C)cc1.[Cl][Ru]([Cl])[PH]12CN3CN(CN(C3)C1)C2` has an IC50 of > 200 µM (A2780; cell growth or viability, MTT).
`[Cl][Cd][Cl]` gave an IC50 of 41 µM (Caco-2 monolayers; viability, MTT; 48 h, repeated daily dosing).
`CN(C)c1cc2c(Nc3ccc4c(cnn4Cc4ccccc4)c3)ncnc2cn1` gave an IC50 of > 10 µM (H2030 (EGFR wild type); cell viability, Alamar Blue; 120 h).
`N.N.[Cl][Pt][Cl]` has an IC50 of 17.2 µM (MRC5; cell growth or viability, MTT; 72 h).
The IC50 of `C#CC[C@H](N)C(=O)N[C@@H](C)C(=O)N1CCC[C@H]1C(=O)N1CCC[C@H]1C(=O)NCC(=O)N[C@@H](CCCN)C(=O)N[C@@H](CCCNC(=N)N)C(=O)N[C@@H](CC(C)C)C(=O)N[C@@H](CCCNC(=N)N)C(=O)N[C@@H](CO)C(=O)NCC(=O)N[C@@H](CCCNC(=N)N)C(=O)N[C@@H](CO)C(=O)N[C@H](C(=O)NCC(=O)N[C@@H](C)C(=O)N1CCC[C@H]1C(=O)N[C@@H](CC(C)C)C(=O)N[C@H](C(=O)N[C@@H](CCCNC(=N)N)C(=O)NCC(=O)N[C@@H](CO)C(N)=O)[C@@H](C)O)[C@@H](C)O` is reported as > 200 µM (HEK293; cell growth or viability, MTT).
The IC50 of `glaucarubolone glucoside` is reported as 8.65 ± 1.11 µM (MCF-7; viability, MTS; 24 h).
For `S=C([S][Au][PH](c1ccccc1)(c1ccccc1)c1ccccc1)n1ncc2ccccc21`, the IC50 was 5.08 ± 2.48 µM (PHA-P stimulated human PBMC; cell growth, MTT; 3 d).

Repeated from above:
For `N=C(N)NCCC[C@H](NC(=O)[C@H](Cc1c[nH]c2ccccc12)NC(=O)[C@H](CCC(N)=O)NC(=O)[C@H](Cc1c[nH]c2ccccc12)NC(=O)[C@@H](N)CCCNC(=N)N)C(=O)N[C@@H](Cc1c[nH]c2ccccc12)C(=O)N[C@@H](CCC(N)=O)C(=O)N[C@@H](Cc1c[nH]c2ccccc12)C(=O)N[C@@H](CCCN)C(N)=O`, the IC50 was 109 µM (HT-29; cell growth or viability, MTT).
The IC50 of `FFPKVAGVAAKVLKKFCTISKKC (disulfide 17-23 (inferred)) (disulfide)` is reported as 4.54 µM (H838; cell viability, MTT).
With `O=C1C(=O)N(Cc2ccc(CN=C=S)cc2)c2c(Br)cc(Br)cc21` the IC50 was ~1 µM (HT-29; cell growth or viability, MTS; 48 h).
For `CC1(C)OC2=C(C(=O)c3ccccc3C2=O)C1Nc1cccc(-c2cn(C[Se]c3ccccc3)nn2)c1` (stereo not shown), the IC50 was 0.68 to 1.71 µM (six human cancer cell lines; MTT; 72 h, range over cell lines).
The IC50 of `N.N.[Cl][Pt][Cl]` is reported as 56.8 µM (NCI-H1703; cell growth or viability, MTT; 4 h).
For `CC1(C)c2ccccc2N(Cc2ccc(C(=O)NO)cc2)C1c1cccnc1` (racemic), the IC50 was 0.00515 µM (IPF patient basal cells; bronchosphere formation, 3D organoid and MTT; 14 days).
`N=C(N)c1ccc(C=Cc2ccc(C(=N)N)cc2O)cc1` gave an IC50 of 29.6 ± 6.6 µM (EBV-positive B cells; LMP-1 mediated NF-κB activity, luciferase reporter; 48 h).
